Results pooled from the literature.
Each numbered part is a random draw from the data of one study; scales do not carry over between parts.

Series 1
Target: Prothrombin, mature alpha-thrombin (F2, Homo sapiens, UniProt P00734)
Method: aptamer microarray, sandwich
Form: DNA with 2'F-ANA
Matrix: in vitro
Concentration: 200 nM
Setting: whole 15-mer aptamer, many near background
Together with: Cy3 exosite-II aptamer, 400 nM
Reading: higher = stronger binding
Oligonucleotide: GGTTGGTGTGGTTGG
| Modification | mean fluorescence intensity |
| --- | --- |
| 2'F-ANA at 1 2 3 4 10 11 12 15 | 72 a.u. |
| 2'F-ANA at 1 4 6 7 8 10 11 12 13 15 | 57.5 a.u. |
| 2'F-ANA at 2 4 8 9 11 12 13 15 | 313 a.u. |
| 2'F-ANA at 2 3 6 7 8 9 10 | 343 a.u. |
| 2'F-ANA at 3 6 7 9 11 12 | 1060 a.u. |
| 2'F-ANA at 4 5 6 8 12 13 15 | 90.4 a.u. |
| 2'F-ANA at 3 6 7 9 10 11 12 13 14 15 | 338 a.u. |
| 2'F-ANA at 1 5 6 8 9 11 12 13 14 15 | 49.9 a.u. |
| 2'F-ANA at 4 5 8 9 11 12 13 | 76.2 a.u. |
| 2'F-ANA at 3 5 9 10 12 | 71.1 a.u. |
| 2'F-ANA at 1 2 5 6 7 8 9 11 14 | 76.8 a.u. |
| 2'F-ANA at 1 2 6 7 9 11 14 15 | 50.7 a.u. |
| 2'F-ANA at 1 2 3 4 8 9 10 12 14 15 | 50.8 a.u. |
| 2'F-ANA at 1 3 5 7 8 10 12 14 15 | 49.1 a.u. |
| 2'F-ANA at 1 4 5 8 9 10 12 13 15 | 79.5 a.u. |
| 2'F-ANA at 8 10 13 14 | 116 a.u. |
| 2'F-ANA at 3 5 8 9 11 12 13 | 192 a.u. |
| 2'F-ANA at 1 4 5 6 9 10 11 | 46.7 a.u. |
| 2'F-ANA at 3 4 9 10 11 12 14 15 | 186 a.u. |

Series 2
Target: RNA binding protein fox-1 homolog 2, RRM domain, GST-SBP tag (RBFOX2, Homo sapiens, UniProt O43251-10, residues 100-194)
Method: RNA Bind-n-Seq
Form: RNA
Matrix: in vitro
Concentration: 365 nM
Setting: natural RNA segment, single round, ends assumed
Baseline: no-protein control
Reading: higher = stronger binding
Shared flanks, not repeated: GGGAGUUCUACAGUCCGACGAUC … UGGAAUUCUCGGGUGCCAA
Target sequence (chain): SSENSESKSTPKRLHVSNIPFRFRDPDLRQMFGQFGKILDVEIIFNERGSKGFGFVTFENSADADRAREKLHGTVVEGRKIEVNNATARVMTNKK
| Oligonucleotide | RBNS enrichment (R) |
| --- | --- |
| UAGCUUUGUUUGGAAGCCUUUCUGGUGGUGGUUUUUGUUGUUGUUGUUGUUUUGUUGUUUUACUAUAUGUAAUACAAGCCUACAGUAUUUGCACUAAAGAAAGCUUGUUA | 1.77 |
| UGGCCCCGAGGUCCAGGUUGUAGUCAUGGAAAGAGCCCUGCUGUCUCCCUUCUCAGGGGGCCCAUUUUAGACACACAAAGCCCAAAGAAAGGUGGUUUGCAACAGUGCUU | 0.388 |
| GCCUCUUUCCCCUACUAGCCCCAUGUGACACAUAUUUUUCACACUAUGUGGCAUCAACCAGUGCCAUUACCUCCUGUGGCACCAUAGAGCCCAAUCUCAGGGCAGACAUU | 0.619 |
| CUCGAGACUCCUGUUUGUGAGGGACUCUUACAAGGAUAAGAGCAAGGCCACACCACUUCCGCUGUGUAUCAGUCUAUCAUACACUCCGCACGGUCACAUGAUCACUUCAC | 0.617 |
| UUCUAGAAUUAUAUGCUAAAUGCAUAUUUUAUGAUUUGCUGUAUUAACUGAUGAUAAAACUAAUGGCAGAAAACAAAUUGAACAAUUUCUAUGUAAUGUACAGAUACUAG | 0.695 |
| GAGCCCAGGGUUCCAUCUCACCACCUAUAAGUUGUCAGAAACUCGGAUGCCCCUCCACCCACCUCUGGCAUCUCUAUGCUGCUAAUCUCUGCCACGUGUCCCGUGUGCUC | 0.386 |
| ACACACACAGACCACACGUGCACACAGCACUCCAUAUGCAACUCUGUAUUCUUGCCAAAGAUUUCCUUUAAACAAGAGCACUUUUACCCAAUGGCUCUUUUGUGAAUGAU | 1.13 |
| AGGAAACCGGAUGCCAACUUCCCACGGGUUUACUGUGCCUCUGGCAUCCAGGGUCUUCAGUUUCCCGUGCUUGGCUCUUUGGGGUUCAUGUGUCAUGUUGCUUAUGACCC | 0.233 |

Series 3
Target: Histone acetyltransferase KAT6A, winged helix 2, GST fusion (KAT6A, Homo sapiens, UniProt Q92794, residues 85-181)
Method: protein binding microarray
Form: double-stranded DNA, one strand shown
Matrix: in vitro
Concentration: not given
Setting: 8-mer, flanks averaged, mean of 2 arrays, mostly near background
Baseline: not given
Reading: higher = stronger binding
Target sequence (chain): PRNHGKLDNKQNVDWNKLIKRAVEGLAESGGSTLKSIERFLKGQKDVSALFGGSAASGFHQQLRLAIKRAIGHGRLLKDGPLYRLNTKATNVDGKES
| Oligonucleotide | E-score |
| --- | --- |
| CGTCCCGC | 0.295 |
| AAGGGAAT | -0.182 |
| CTGTCGTC | 0.113 |
| AGTTATAC | 0.0298 |
| ATTCCTCA | 0.0029 |
| AGGTTACT | -0.00628 |
| CTCCCATC | -0.0475 |
| CACTGTAG | 0.12 |
| ACCTGGGG | -0.0725 |
| GGTCTGAC | 0.0307 |
| CCCCTAGA | -0.154 |
| ATATTTGG | -0.0489 |
| CATCAGTA | -0.191 |
| AATGGACT | -0.17 |
| GCCGAAAA | 0.225 |
| GTTAGAAC | 0.0435 |

Series 4
Target: Interferon regulatory factor 7, full length, phosphomimetic (IRF7, Homo sapiens, UniProt Q92985, residues 1-503, S101K/S471D/S472D/S475D/S476D/S477D/S483D/S484D/S487D)
Method: protein-binding microarray
Form: double-stranded DNA, one strand shown
Matrix: in vitro
Concentration: 250 nM
Setting: 60-bp whole probe
Together with: salmon DNA 0.4 mg/ml
Baseline: random background probes
Reading: higher = stronger binding
Shared flanks, not repeated: GCCTAGCAC … GTCTTGATTCGCTTGACGCTGCTG
Target sequence (chain): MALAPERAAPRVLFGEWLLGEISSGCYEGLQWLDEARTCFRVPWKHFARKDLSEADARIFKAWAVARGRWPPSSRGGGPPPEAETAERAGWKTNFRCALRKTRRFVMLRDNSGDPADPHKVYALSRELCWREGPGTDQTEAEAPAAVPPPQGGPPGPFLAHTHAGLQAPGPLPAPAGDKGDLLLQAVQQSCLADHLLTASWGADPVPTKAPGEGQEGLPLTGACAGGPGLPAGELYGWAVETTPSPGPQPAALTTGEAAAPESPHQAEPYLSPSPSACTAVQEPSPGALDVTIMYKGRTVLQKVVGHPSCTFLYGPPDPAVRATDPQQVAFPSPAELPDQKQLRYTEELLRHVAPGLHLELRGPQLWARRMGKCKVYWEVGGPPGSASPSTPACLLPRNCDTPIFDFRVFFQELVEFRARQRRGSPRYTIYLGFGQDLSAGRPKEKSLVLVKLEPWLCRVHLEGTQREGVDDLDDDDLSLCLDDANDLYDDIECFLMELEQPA
| Oligonucleotide | log fluorescence [z-score] |
| --- | --- |
| AGGGTCCCGCGATTCGACACGTGCTAG | 0.0142 |
| TCATCTCTACTTGTGTCACTGTGCTAG | 0.844 |
| TTGGATTTCGGGTATCGATTAGTGCTA | 1.51 |
| GCCGAACTGAGTATCGAGACGTGCTAG | 0.101 |
| TTAGGTTTCTGTTTCGGTTAGTGCTAG | 11 |
| GACTGTTTCGACTATCGGGACGTGCTA | 2.27 |
| CAAACACTAGTTTTTACTTTGTGCTAG | 0.394 |
| CTCACCGCCAACCCAGTTCCGTGCTAG | 0.31 |
| GCCGGTTTCGACTTTCGGGACGTGCTA | 11.4 |
| TGAGCACCCAGAGCCGCCTGGTGCTAG | -0.774 |
| TTAGCTTTCCTTTTCCTTTAGTGCTAG | 1.93 |
| GACCGACTGGACACTGGGGACGTGCTA | -0.476 |
| GCCGGACTGGGTCTCGGGACGTGCTAG | -0.404 |
| TTAGGTATCGGCATCGGTTAGTGCTAG | 0.16 |
| TTAGGGCTGGACACTGGGTTAGTGCTA | -1.01 |
| TTAGGTATCTGTATCGGTTAGTGCTAG | 0.337 |

For quick reference, copied from above (series 4):
| Oligonucleotide | log fluorescence [z-score] |
| --- | --- |
| GACTGTTTCGACTATCGGGACGTGCTA | 2.27 |
| CAAACACTAGTTTTTACTTTGTGCTAG | 0.394 |
| CTCACCGCCAACCCAGTTCCGTGCTAG | 0.31 |
| GCCGGTTTCGACTTTCGGGACGTGCTA | 11.4 |
| TGAGCACCCAGAGCCGCCTGGTGCTAG | -0.774 |
| TTAGCTTTCCTTTTCCTTTAGTGCTAG | 1.93 |
| GACCGACTGGACACTGGGGACGTGCTA | -0.476 |
| GCCGGACTGGGTCTCGGGACGTGCTAG | -0.404 |
| TTAGGTATCGGCATCGGTTAGTGCTAG | 0.16 |
| TTAGGGCTGGACACTGGGTTAGTGCTA | -1.01 |
